Experimental data collected from several papers.
A part holds a random share of what one study measured. Substitutions count along the parent as printed.

Series 1
Target: JUND, bZIP domain (human)
Method: DHFR protein complementation
Medium: yeast
Setting: single substitutions, most at no-binding floor
Relative to: wild-type JUN-FOS pair
Reading: higher = stronger binding
Parent: JUN, bZIP domain (human); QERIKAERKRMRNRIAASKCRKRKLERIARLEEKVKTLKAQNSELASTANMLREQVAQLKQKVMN; partner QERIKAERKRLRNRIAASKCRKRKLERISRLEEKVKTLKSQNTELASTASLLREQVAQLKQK
| Change | binding fitness [natural log] |
| --- | --- |
| A40S | -0.828 |
| T37K | -0.632 |
| A46L | -0.548 |
| A46N | -0.621 |
| A40F | -0.992 |
| E54D | -0.922 |
| K34F | -1.07 |
| E54K | -0.922 |
| T48V | -0.637 |
| S43N | -0.65 |

Series 2
Target: Ras GTPase-activating protein-binding protein 1, full length (G3BP1, Homo sapiens, UniProt Q13283)
Chain of UniProt Q13283 (whole entry, looked up): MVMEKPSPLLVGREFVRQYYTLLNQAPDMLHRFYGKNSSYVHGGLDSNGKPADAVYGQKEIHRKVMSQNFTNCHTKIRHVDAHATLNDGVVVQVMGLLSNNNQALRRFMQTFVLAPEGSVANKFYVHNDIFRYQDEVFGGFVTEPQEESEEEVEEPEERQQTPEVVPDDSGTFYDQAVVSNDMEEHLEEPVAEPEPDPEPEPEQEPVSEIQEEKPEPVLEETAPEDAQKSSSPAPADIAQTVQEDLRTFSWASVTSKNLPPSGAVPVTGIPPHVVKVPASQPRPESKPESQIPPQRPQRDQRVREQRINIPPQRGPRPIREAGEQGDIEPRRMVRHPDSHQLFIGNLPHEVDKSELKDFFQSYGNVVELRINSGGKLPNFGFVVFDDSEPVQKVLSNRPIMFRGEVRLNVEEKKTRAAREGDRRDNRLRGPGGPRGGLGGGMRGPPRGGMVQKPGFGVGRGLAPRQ
Method: RNA Bind-n-Seq
Molecule type: RNA
Medium: in vitro
Tested at: 200 nM
Setting: whole 134-nt RNA, ends assumed
Together with: 150 mM KCl
Relative to: input library
Reading: higher = stronger binding
Constant ends, left off below: GGGAGUUCUACAGUCCGACGAUC … UGGAAUUCUCGGGUGUCAAGG
| Sequence | log2 enrichment |
| --- | --- |
| GUCCUGUGCUACACAUCGUAUGUACCGAAUCAAACCCCCAAAUUUAAACCCCCCCAAAAAAGUAUUAUGUUACGCCGUUCGGAUCUGCAC | -0.139 |
| GUCCUGUGCUACACAUCGUAUGUACCGAAUCGGGGAAAAAAAGGGGAGGGGUUUGGGGAAAGUAUUAUGUUACGCCGUUCGGAUCUGCAC | 0.258 |
| AGUCCUGUGCUACACAUCGUAUGUACCGAAUCGGGCCCCGGGCCCCGGGGCCCCGGGAAAGUAUUAUGUUACGCCGUUCGGAUCUGCACU | 0.163 |
| CACAGACAACACGCACCCACACAGACAAAGAGGGAAGGGGUUGGGAUGGGGACAGGGUGCACAGCAGGGCGGGGUAGGACCCCAGCCCCU | 1.91 |
| CACAGACAACACGCACCCACACAGACACAGAGGGAAGGGGUUGGGAUGGGGACAGGGUGCACAGCAGGGCGGAGUAGGACCCCAGCCCCU | 1.97 |
| CUGUGCUACACAUCGUAUGUACCGAAUCGGGCCCCCCCGGGGCCCCCCCGGGCCCCCCCGGAAAGUAUUAUGUUACGCCGUUCGGAUCUG | -0.737 |
| ACCAUGCAGGUGGGCAUCUUUGGGAAGUGGGGCAAGGGGGGGAUAGCGAGGGGGGUAACACUUUGGGAACAGGUGGUCCCAGGUCGUUUC | 0.98 |
| GAAGAUUGGCUUAAAAUGGCUACUGUGAUGGGAACAGUGUCUUAGGGAGAUGCAGCUUGGACUUGAGGUAAAUUGAAUACUUUACAACUG | 0.0816 |
| UCCUGUGCUACACAUCGUAUGUACCGAAUCGGGGUUUGGGGAAAGGGGUUUUUUUGGGGAAAGUAUUAUGUUACGCCGUUCGGAUCUGCA | 0.842 |
| CUCAAGUCCUGUGCUACACAUCGUAUGUACCGAAUCGGGCCGGGGCCGGCCGGGAAAGUAUUAUGUUACGCCGUUCGGAUCUGCACUUCC | -0.392 |
| GUCCUGUGCUACACAUCGUAUGUACCGAAUCGGGGUUUGGGGUUUUUGGGGAAAGGGGAAAGUAUUAUGUUACGCCGUUCGGAUCUGCAC | 0.772 |
| UUCCGCUGUCUUUUCUGUCUACAGUUUGCGAUCCCCGCGUCCAGGAUGGAGCAGCUGAACGAACUGGAGCUGCUGAUGGAGAAGAGUUUU | -0.411 |
| GCAGGAAGUAAAAACGAAUGGAAAUGCUUCGGAUAGUGGCAGGGGUGGGGGUUGCUAAGGAAAGGGUGGGAUGGGAGUGGGUAAAGAGUU | 0.949 |
| CACAGACAACACGCACCCACACAGACACAGUGGGAAGGGGUUGGGAUGGGGACAGGGUGCACAGCAGGGCGGGGUAGGACCCCAGCCCCU | 1.75 |

Series 3
Target: ABI1, truncated, D143A, DHFR fusion (Arabidopsis thaliana)
Method: DHFR PCA, deep sequencing
Medium: yeast
Setting: methotrexate growth selection, single substitutions
Together with: (+)-ABA 0.0091 µM
Relative to: wild-type fitted maximum
Reading: higher = stronger binding
Parent: PYL1, truncated, DHFR fusion (Arabidopsis thaliana); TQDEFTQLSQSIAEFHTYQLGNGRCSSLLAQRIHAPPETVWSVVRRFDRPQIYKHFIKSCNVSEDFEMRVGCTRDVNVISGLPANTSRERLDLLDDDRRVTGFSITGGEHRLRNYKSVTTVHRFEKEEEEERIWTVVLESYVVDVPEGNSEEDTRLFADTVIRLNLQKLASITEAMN
| Change | relative binding score [%] |
| --- | --- |
| V76W | -4.26 |
| I172S | -2.95 |
| S42V | -2.77 |
| D97H | 20.3 |
| V76C | 12.9 |
| S80N | 46.2 |
| S11T | 29.4 |
| V62W | -2.38 |
| K126A | 65.7 |
| V76G | 0.42 |
| D153M | -1.8 |
| R74E | 1.07 |
| N22P | 63.1 |
| E89Q | -4.22 |
| R69I | 18.3 |
| R90S | -1.81 |
| S42F | 0.231 |
| N177L | 3.75 |
| A84C | 35 |
| R90P | 0.382 |

Series 4
Target: RNA binding protein fox-1 homolog 2, RRM domain, GST-SBP tag (RBFOX2, Homo sapiens, UniProt O43251-10, residues 100-194)
Method: RNA Bind-n-Seq
Molecule type: RNA
Medium: in vitro
Tested at: 365 nM
Setting: natural RNA segment, single round, ends assumed
Relative to: no-protein control
Reading: higher = stronger binding
Constant ends, left off below: GGGAGUUCUACAGUCCGACGAUC … UGGAAUUCUCGGGUGCCAA
Residues (chain): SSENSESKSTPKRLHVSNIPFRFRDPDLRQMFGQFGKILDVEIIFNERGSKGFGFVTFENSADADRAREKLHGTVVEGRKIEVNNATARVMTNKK
| Sequence | RBNS enrichment (R) |
| --- | --- |
| CAGGGCAUUCCAUCCCUAGUUCUCACAGUGAACACCUGCCUCCUCUCUCUCCUGAGAGCAAGCAUUUGUGUCAGCCACAGGAAGCAGAAGUAUUAAGGGAGGAAGUGCUG | 0.338 |
| GACAACUGAGUAGCUCCCUUGGCCCCUCCUCCAUCCUCUCACACCCUGUGCUCCGUUCCUCAGCCGUUUGGACAGGGAGCUCCGCUGUCACCAAGGAGCCCAUGUGAGAC | 0.416 |
| CCAUGGGAACCAGCCUGGGCCCUAGUGGAGGGUCCUGGUAGCUGCAGACCAGAGCCUCACACCUCUGGGUUGGGUGUGGAGGAAGAGGGGUACUGAGUUCCCUGGUCCUU | 0.467 |
| AAUCCUCCUAGGACAGGAGUUUGUUUCCUGAGUGUGGAGUGAGGCUGUCAGUGGAUCCGUGCUUUGUCGGCCAGCGUUUCUGCAGUCUUUGUAAAGGCCCCACGAGAGCG | 0.451 |
| AUGUCCUUUAUAAGGUAUACUUGGAUUGGCCGAGACCUGGCCUGGCAUCAGGAGUCCAAACCUCUGAGGUCUGAUCUCUGCUCUGUCAAGGACUUUCGGCAAGUCUCGUG | 0.692 |
| UCUUUGACUAUAACAAAAUCUGGGGAGGACAAAGGUGAUUUUCCUGUGUCCACAUCUAACAAAGUCAAGAUUCCCGGCUGGACUUUUGCAGCUUCCUUCCAAGUCUUCCU | 0.207 |
| AGGUAAUGAACAUCUUUUUCAGUAAUUGUAAAGUGAUUUAUUCAGAAUAAAUUUUUUGUGCUUAUGAGUUGAUAUGUAUCUGAACAGUUUGUUCUAAGUACCAUUUUUCU | 0.618 |
| AAGCCUAACUUUGUCGCUAGUCCUAAGGAGAAACCUUUAACCACAAAGUUUUUAUCAUUGAAGACAAUAUUGAACAACCCCCUAUUUUGUGGGGAUUGAGAAGGGGUGAA | 0.416 |
| AGUUUUAAGAAUAUGAAAUUAAGUUCAGGGCCCCGGAAGCUUCUUGAGCGACAUAGCCAGUCCGCCUCUGGUCAUGGCAGAACUGAUGCUGGACUUUGGUAUCUGAGGCA | 3.05 |
| GACUUGGCCAGUGGUUUAAGUACCUGCCCCUUCACCUCUCAGACGAGGCAGCUGACGAGGCAGCUGGCCCAGUCUUGGGAGUCUGCUCAGGACAGUGGUGGAGCUGGGUC | 0.409 |
| AAAGGCUAGAAUUCAAGAACGGUCUUAACUGAACCCUCAUCAGAUCUGAAUUUAACAAAUGCUUAGUCUCAGCAGCCUCCGGGGGAAAAAAGCUUAGCCUAGCAGUCAGU | 0.583 |
| UCAUAGUGGUAAAUAAUGUAGAUUAUAUAUAUACAUAUAUAUAUAUAUAUAUGCUAUAUAUGGACACACUAUUUUCUUAUGUCAUCUAUGGCAUUUUUUUAUCUGUAUAC | 1.34 |

Series 5
Target: CCNE2, cyclin fold, Cln2 fusion (human)
Method: yeast growth competition, sequencing
Medium: yeast
Setting: strong parent motif
Relative to: not given
Reading: higher = stronger binding
Parent: NPAT docking peptide (human); PCHRRVLCFDSTT
| Change | normalised enrichment score |
| --- | --- |
| PCARRVLCFDSTT [H3A] | 2.95 |
| PCHRKVLCLDSTT [R5K F9L] | 0.143 |
| PCHRRVLCFDSAT [T12A] | 2.05 |
| PCHRRVLCADSTT [F9A] | 0.456 |
| PAHRRVLCFDSTT [C2A] | 2.84 |
| PCHRRALCFDSTT [V6A] | 1.33 |
| PCHRRVLCFASTT [D10A] | 1.63 |
| PCHRRVLAFDSTT [C8A] | 1.35 |
| PCHRRVLCLDSTT [F9L] | 0.41 |
| PCHRAVACFDSTT [R5A L7A] | -0.0826 |

Mixed results
| Molecule | target | test | system | setting | how to read | quantity | result |
| --- | --- | --- | --- | --- | --- | --- | --- |
| PhoQ, residues 284 288 289 292 302 303 TNSAEL | PhoP, residues 12 14 15 18 19 TTLRV (Escherichia coli, UniProt P23836) | Sort-seq, refers to: YFP reporter | E. coli | PhoQ-PhoP variant library, together with: 10 µM Mg2+ | relative to: high Mg2+ state, higher = stronger signaling | fold induction | 7.5 |

For quick reference, copied from above (mixed results):
| Molecule | target | test | system | setting | how to read | quantity | result |
| --- | --- | --- | --- | --- | --- | --- | --- |
| PhoQ, residues 284 288 289 292 302 303 TNSAEL | PhoP, residues 12 14 15 18 19 TTLRV (Escherichia coli, UniProt P23836) | Sort-seq, refers to: YFP reporter | E. coli | PhoQ-PhoP variant library, together with: 10 µM Mg2+ | relative to: high Mg2+ state, higher = stronger signaling | fold induction | 7.5 |
